Assay results of several laboratories.
A part holds a random share of what one study measured.

Series 1
Target: Interferon regulatory factor 7, full length, phosphomimetic (IRF7, Homo sapiens, UniProt Q92985, residues 1-503, S101K/S471D/S472D/S475D/S476D/S477D/S483D/S484D/S487D)
Method: protein-binding microarray
Molecule type: double-stranded DNA, one strand shown
Matrix: in vitro
Concentration: 250 nM
Notes: 60-bp whole probe
With: salmon DNA 0.4 mg/ml
Baseline: random background probes
Reading: higher = stronger binding
Shared flanks, not repeated: GCCTAGCAC … GTCTTGATTCGCTTGACGCTGCTG
Construct (chain): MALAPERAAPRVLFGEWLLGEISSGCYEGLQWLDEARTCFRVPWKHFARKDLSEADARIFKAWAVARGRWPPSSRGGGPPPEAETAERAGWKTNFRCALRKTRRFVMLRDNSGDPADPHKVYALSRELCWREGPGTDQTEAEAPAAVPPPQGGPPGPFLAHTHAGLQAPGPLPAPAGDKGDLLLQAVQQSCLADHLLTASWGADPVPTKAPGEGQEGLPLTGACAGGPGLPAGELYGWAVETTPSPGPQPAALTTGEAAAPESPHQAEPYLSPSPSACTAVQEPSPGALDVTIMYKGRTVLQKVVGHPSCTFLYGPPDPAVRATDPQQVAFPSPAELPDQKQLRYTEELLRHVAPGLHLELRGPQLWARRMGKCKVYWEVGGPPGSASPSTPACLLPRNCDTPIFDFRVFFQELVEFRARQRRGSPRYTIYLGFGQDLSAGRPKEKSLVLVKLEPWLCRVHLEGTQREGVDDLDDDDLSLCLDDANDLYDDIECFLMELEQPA
Oligonucleotide | log fluorescence [z-score]
TTAGGTATCGGGAGTGGGTTAGTGCTA | -0.13
AAGGTAGCACTTCACAGCAAGTGCTAG | -0.687
TCATTCTTGCATCTGGGACTGTGCTAG | 0.508
TCAGATCTGCCGTCCCACTCAGTGCTA | -0.0746
TTAGATAACGGGTATCGATTAGTGCTA | 0.74
TCACATCTGTCATGTTTGACTGTGCTA | 0.0231
TAGTATTTTTTTCCAGAGGGGTGCTAG | 0.403
GACGATATCGGGTTCCGAGACGTGCTA | -0.00472
TACGGACTGCTTCTCCTGACGTGCTAG | -0.232
GACAATCTCAGTATCGAGACGTGCTAG | 0.116
GACGGTATCGACTATCGGAACGTGCTA | 0.086
TGCTTTCTCTTTCATTGCTGCGTGCTA | 3.25
CTCTCCATGTGTTTAAAGACGTGCTAG | 0.186
GGTTTTCTCTGGTTCTTGCTGTGCTAG | 2.84
TTAGGTTTCGACTTTTGGTTAGTGCTA | 8.68
TCATCTCCGGGGTCTGTGACTGTGCTA | -0.221
GACGGTTTCGAGTTTCGGGACGTGCTA | 11.5

Series 2
Target: RING finger protein unkempt homolog, zinc fingers 1-6, GST-SBP tag (UNK, Homo sapiens, UniProt Q9C0B0, residues 30-357)
Sequence of UniProt Q9C0B0 (30-357, looked up): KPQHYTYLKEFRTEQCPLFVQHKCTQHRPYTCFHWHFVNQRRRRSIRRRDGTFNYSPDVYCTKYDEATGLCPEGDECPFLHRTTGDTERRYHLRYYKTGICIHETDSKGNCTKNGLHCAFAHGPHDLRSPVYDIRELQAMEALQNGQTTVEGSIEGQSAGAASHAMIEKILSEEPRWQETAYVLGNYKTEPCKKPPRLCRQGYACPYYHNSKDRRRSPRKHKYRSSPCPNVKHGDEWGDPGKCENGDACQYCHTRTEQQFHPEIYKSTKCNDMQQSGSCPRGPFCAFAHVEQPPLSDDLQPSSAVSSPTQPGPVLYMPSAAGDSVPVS
Method: RNA Bind-n-Seq
Molecule type: RNA
Matrix: in vitro
Concentration: not given
Notes: RNA with constant flanks, ends assumed
Baseline: input RNA pool
Reading: higher = stronger binding
Oligonucleotide | bound/input enrichment
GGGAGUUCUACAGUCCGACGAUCUAUUUGUGUAAAGUAUGCAUGCAGUCUUGUACUGUGACCUAAGAACAAAACUGUAACUGCAUCCGAAACCAUGAAAAAAUUAGAUAUUGUUUUGUGACUUUUAGACAGUGGUAAAUAUAGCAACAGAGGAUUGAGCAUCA | 4.42 ratio
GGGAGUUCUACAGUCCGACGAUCACCCCCAUGGUCCCUAUCUGUAGUCAGACUGUGCUGGCUGGGUCUCUGCAGGGAACCUGUUACCGCAGGUUUGUGGUGACCUUGGAGGGAGGGUCUGCCAGCAGAGAAUACAGUGCGCUUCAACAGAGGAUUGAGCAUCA | 0.135 ratio
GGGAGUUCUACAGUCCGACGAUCUCCUUUGUCCUUGGAUUACUUAAGAGUUCCCAGAAAUACAUUUGCCACCAACAGAGCCGCCAAAUUUAUAAGGAAAAAUGAUUCCCAAUGGAUAUUUGAUGUUUGAGGAUGAAAAUUUUACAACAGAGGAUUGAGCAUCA | 0.512 ratio
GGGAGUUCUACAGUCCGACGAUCAGACCUUUGGGUACAACCAAAGCUGCAGGAUACAAAGUCAGCCCAGGGAGACCUCCAGGCCGCAUUAAAGCUCUGUCCCGCCUUGCAGAUCUUGGCUAUGGCUGUGGCACUGCUGCCUUUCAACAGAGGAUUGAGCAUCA | 0.124 ratio
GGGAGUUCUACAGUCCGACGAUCCGAAAUUGGGAUGACAUGAAACACCUGUGGGACUACACAUUUGGACCAGAGAAACUUAAUACCGAUACCAGAAAUUGUAAAAUCUUACUCACAGAACCUCCUAUGAACCCAACCAAAAACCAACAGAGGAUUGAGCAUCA | 0.195 ratio
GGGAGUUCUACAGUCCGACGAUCGAAGAAAAUGGCGAGGACAGAGAUACAGCAAGUGAAAAAGAAUUAAAUGGAGAUUCUGAUUCCGAUCCUGAAAAUGAAAGUGAAGAAGAAUGAAGACAGCAAAGCAAGCCGGUCAAACUACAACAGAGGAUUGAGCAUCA | 0.433 ratio
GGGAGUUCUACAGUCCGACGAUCAAGUUUGGAUUUGAAAUUAGUUUUCCUGAAUUUUGUUUAAAAGGAGUUACGCCUACGAAUGUCCGUGCGUAUAAUUUAAAUACCUGCUUCCUUGCCAAGAAGAUAGCAUCUUCUAAGGUUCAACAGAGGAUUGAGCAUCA | 0.52 ratio
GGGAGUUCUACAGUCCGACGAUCCAGAGAAGGGAAGAAAGUGAUCCUGAAUAUCGGUCCAGCAAAUCAAAGCCAUUGACCCUAUCCGAAUAUAAUUUAACUAUGGACACUGCAAAGCUGUUUAUGUCCUGCCUUCACGCCUGGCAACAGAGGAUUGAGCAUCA | 0.196 ratio

Series 3
Target: Sal-like protein 4, full length isoform B (SALL4, Homo sapiens, UniProt Q9UJQ4-2, residues 1-616)
Method: universal PBM
Molecule type: double-stranded DNA, one strand shown
Matrix: in vitro
Concentration: not given
Notes: 8-mer, flanks averaged, mean of replicates
Reading: higher = stronger binding
Construct (chain): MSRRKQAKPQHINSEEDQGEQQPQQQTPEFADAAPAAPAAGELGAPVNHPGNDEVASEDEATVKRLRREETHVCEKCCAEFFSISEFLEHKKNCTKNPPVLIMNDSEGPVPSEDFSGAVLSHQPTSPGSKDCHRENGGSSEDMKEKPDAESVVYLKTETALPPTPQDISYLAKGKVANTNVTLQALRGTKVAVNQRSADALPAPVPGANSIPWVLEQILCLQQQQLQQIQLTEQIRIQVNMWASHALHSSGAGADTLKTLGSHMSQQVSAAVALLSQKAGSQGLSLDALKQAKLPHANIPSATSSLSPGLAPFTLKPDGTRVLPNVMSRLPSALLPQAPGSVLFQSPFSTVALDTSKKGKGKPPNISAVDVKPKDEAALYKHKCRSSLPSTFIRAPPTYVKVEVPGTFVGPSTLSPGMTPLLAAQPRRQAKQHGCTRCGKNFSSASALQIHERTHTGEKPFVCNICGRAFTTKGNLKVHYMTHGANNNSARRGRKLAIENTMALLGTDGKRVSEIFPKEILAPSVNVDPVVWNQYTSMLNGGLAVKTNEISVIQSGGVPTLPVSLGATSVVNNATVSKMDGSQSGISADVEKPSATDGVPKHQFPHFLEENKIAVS
Oligonucleotide | E-score
CATCACGA | 0.026
CTGACGAC | -0.0772
CAACTACC | -0.0998
CTGTGGCC | -0.317
GGCCTCTA | -0.267
AACCTGTG | -0.0673
GCTCCTCC | -0.257
GCCTGAAA | 0.0672
ATACGTCG | 0.0725
GGACGTCA | -0.143
GGTAGCAC | -0.301
AGAGCTAG | -0.0975
TCGACTAA | 0.035
GGTATTTA | 0.194
TGAACCCA | -0.126
AAGTAAAA | 0.244
ATAAGTGG | 0.227
ACACCTAG | 0.012
CCGAAAGA | -0.168
CCGATAAG | 0.00726
CGAATCCA | -0.0653
GAAATGGA | 0.0778
GATGGCAA | 0.0979
GGATAGGA | 0.00917
AGCACTGC | -0.133

Series 4
Target: RNA binding protein fox-1 homolog 2, RRM domain, GST-SBP tag (RBFOX2, Homo sapiens, UniProt O43251-10, residues 100-194)
Method: RNA Bind-n-Seq
Molecule type: RNA
Matrix: in vitro
Concentration: 365 nM
Notes: natural RNA segment, single round, ends assumed
Baseline: no-protein control
Reading: higher = stronger binding
Residues (chain): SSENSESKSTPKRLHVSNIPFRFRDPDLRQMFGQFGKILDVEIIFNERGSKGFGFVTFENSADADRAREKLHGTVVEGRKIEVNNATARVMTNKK
Oligonucleotide | RBNS enrichment (R)
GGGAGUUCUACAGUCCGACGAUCCUGUUCCCUUGAUAGCUUCGGGUCAUUGGUGGCAGCUCAUGUCCUCGGCGCUCCUUGUGUGGAGGCCAUUCUUUUUUCAAUGGGUAUCACAUGGUUUUGCCAUCCCUAAGUGGAAUUCUCGGGUGCCAA | 0.396
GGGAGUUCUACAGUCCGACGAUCAUUGUCAUCUCCAGGACUAUGAAAGAGGGAGGGUGGCGGUGUCUCUGUCUGCAAACAGUGUCAGGAUCAGAAUCAAGGACAGGAGGCAAAGUGAAGUUCACACCCAGCACUGGAAUUCUCGGGUGCCAA | 0.78
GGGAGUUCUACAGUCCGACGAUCGGGGGGUUGAUCACAUACAUGUACCAUCGUGUGAUCAUAGUACUAUGAUUUGCUUUUGACGUCUGUCCUAGUGAUGUGUGUUGUCUGCUGGCAUGCUUGCAGCACAUGUCUGGAAUUCUCGGGUGCCAA | 0.628
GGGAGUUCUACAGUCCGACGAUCCAAGUACGAUUUGACAGUAGUACAAUAACCUGUGCCCAAAACACAAGAAAUACAGAGUAAAGCGAAAAUAACUGCUUACCAAUAUUCUGAGAGGUAACAAAUGGGAUAUGUGGAAUUCUCGGGUGCCAA | 0.346
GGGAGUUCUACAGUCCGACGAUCGUUAUGAAACUAAUUUGCAUUUUUAUUUGCUUAAGAAAGAAAGCUGUGAUAGAUUCCAGAUAUGCUUUUUGAUGUUUUCCUCUGCUCCAGCUCCAAGAAGUCAGCACACCUGGAAUUCUCGGGUGCCAA | 0.695
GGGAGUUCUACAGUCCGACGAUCUGAUCCCUUUGUACCAAGUCAAUGGCCACUUGAAAGUUCUGUGGACUCCCUUGUGGCCUCAACCCGUUCGUCCUUCAGCCUGUCAUCCUUCAGGCACCGACGCCCAACCUUGGAAUUCUCGGGUGCCAA | 0.311
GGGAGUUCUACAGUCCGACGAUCAGUUUCAGGAACCAGCCACAUUUCUGGUGUGUAUAUGAGAGGGUGGCUGAUAGCAACUGACUUAGACCUGUACCUGGAUUUCACUUGAAUUUAUAAAAUGUGUAUUGCUCUGGAAUUCUCGGGUGCCAA | 2.94
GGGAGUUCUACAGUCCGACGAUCGAUUUCAAACUGAAUAUGGGUCCCCAAAUGUUCCCAGAGGGUCCUCCACACCCUCUGCCGACUACCACGGUGUGGAUUCAGCUCCCAAAUGACAAACCCAGCCCUUCCCAUGGAAUUCUCGGGUGCCAA | 0.285

Excerpt of the above (series 3):
Oligonucleotide | E-score
GGTAGCAC | -0.301
AGAGCTAG | -0.0975
TCGACTAA | 0.035
GGTATTTA | 0.194
TGAACCCA | -0.126
